Results of several laboratories.
Compare with care: the assays were run in different laboratories.
Target: Peroxisome proliferator-activated receptor gamma (PPARG, Homo sapiens, UniProt P37231)
One construct used (P37231 238-503, limits assumed): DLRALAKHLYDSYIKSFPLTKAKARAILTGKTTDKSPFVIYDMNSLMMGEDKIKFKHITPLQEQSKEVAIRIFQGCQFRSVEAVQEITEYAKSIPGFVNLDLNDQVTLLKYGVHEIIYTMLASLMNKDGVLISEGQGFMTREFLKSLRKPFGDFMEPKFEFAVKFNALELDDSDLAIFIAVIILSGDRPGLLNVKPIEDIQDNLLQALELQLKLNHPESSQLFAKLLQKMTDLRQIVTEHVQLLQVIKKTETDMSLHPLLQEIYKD

Compound	assay	test system	conditions	scale	quantity	result
CC(C)(Oc1ccc(CCNC(=O)c2ccc(Cl)cc2)cc1)C(=O)O	reporter gene, agonist, β-lactamase reporter	HEK293-H cells	freely dissolved concentration		EC10	12.8 µM
CCO[C@@H](Cc1ccc(OCCc2ccc(OS(C)(=O)=O)cc2)cc1)C(=O)O	ITC		binary complex no Med1		binding free energy	-8.82 kcal/mol
CCCCCCCC(=O)c1cc(OC)c(OC)c(OC)c1CC(=O)OCC	reporter gene, Gal4 hybrid reporter		10 µM	reference: vehicle	activation	1.69 fold
CC(C)(Oc1ccc(CCNC(=O)c2ccc(Cl)cc2)cc1)C(=O)O	ITC		binary complex no Med1		binding free energy	-6.16 kcal/mol
CSc1ccc(C(=O)/C=C/c2cc(C)c(OC(C)(C)C(=O)O)c(C)c2)cc1	receptor activation, agonist, cell-based				Emax	73.4%
CCCCCCCCC(=O)c1cc(O)c(O)c(O)c1	reporter gene, Gal4 hybrid reporter		10 µM	reference: vehicle	activation	2.68 fold
O=C(O)CCCc1cc2cc(Cl)ccc2n1S(=O)(=O)c1ccc2ncsc2c1	receptor activation, agonist, cell-based				Emax	91%
CN(CCOc1ccc(CC2SC(=O)NC2=O)cc1)c1ccccn1 (stereo not shown)	ITC		binary complex no Med1		binding free energy	-6.58 kcal/mol
C=C1C(=O)O[C@@H]2C[C@@]3(C)CCCC(=C)[C@@H]3C[C@H]12	reporter gene, Gal4 hybrid reporter		10 µM	reference: vehicle	activation	1.2 fold
CC(C)(Oc1ccc(Cl)cc1)C(=O)O	reporter gene, agonist, β-lactamase reporter	HEK293-H cells	nominal concentration	reference: cytotoxicity IC10 over EC10	specificity ratio	125
N#Cc1cc2cc(S(N)(=O)=O)ccc2oc1=N	ELISA, measured: PPARγ protein		concentration not given	reference: control	fold change	1.36
O=c1[nH]c2ccccc2s1	reporter gene, agonist, β-lactamase reporter	HEK293-H cells	freely dissolved concentration		EC10	31.9 µM
COc1cccc2c(Nc3ccc4[nH]c(C(=O)N/N=C/c5ccc(SC)cc5)cc4c3)cc(C)nc12	reporter gene, Gal4 hybrid reporter		3 µM	reference: vehicle	activation	1.12 fold

Repeated from above:
Compound	assay	test system	conditions	scale	quantity	result
CN(CCOc1ccc(CC2SC(=O)NC2=O)cc1)c1ccccn1 (stereo not shown)	ITC		binary complex no Med1		binding free energy	-6.58 kcal/mol
